Measurements pooled from the literature.
Each line is one published result; not all experiments were run side by side. Values joined by “and” are separate records of one study, mostly repeats; a detail may differ. Numbers after ± are the reported error. Values after ≈ are worked out from the molar mass of the structure shown.

| SMILES | target or system | test | test system | setting | scale | quantity | result |
| --- | --- | --- | --- | --- | --- | --- | --- |
| CC[C@H](C)[C@H](NC(=O)[C@H](C)NC(=O)[C@H](CCCCN)NC(=O)[C@H](CC(C)C)NC(=O)[C@H](C)NC(=O)[C@@H](NC(=O)[C@H](Cc1c[nH]cn1)NC(=O)[C@H](CC(C)C)NC(=O)[C@@H](NC(=O)[C@@H](NC(=O)[C@H](CCCCN)NC(=O)[C@H](C)NC(=O)[C@H](C)NC(=O)[C@H](CO)NC(=O)[C@H](CCCCN)NC(=O)[C@H](Cc1ccccc1)NC(=O)[C@@H](NC(=O)[C@H](CCCCN)NC(=O)[C@H](CC(C)C)NC(=O)[C@H](Cc1ccccc1)NC(=O)[C@H](CO)NC(=O)[C@H](CCCCN)NC(=O)[C@H](Cc1c[nH]c2ccccc12)NC(=O)[C@H](CCCCN)NC(C)=O)[C@@H](C)O)[C@@H](C)O)C(C)C)[C@@H](C)O)C(=O)N[C@@H](CO)C(=O)N[C@@H](CO)C(N)=O | Klebsiella pneumoniae |  | ATCC 1706 |  |  | MIC50 | 2 µg/mL (≈ 0.682 µM) |
| c1ccc(C(NCCNC(c2ccccc2)c2ccccc2)c2ccccc2)cc1 | NMDA receptor, rat, Agonism site | binding |  | 10 µM, Eurofins selectivity panel |  | inhibition | 8% |
| Cn1c(=O)ccc2ccc(F)c(CCNC[C@H]3CN(c4cnc5c(n4)NC(=O)CO5)C(=O)O3)c21 | Klebsiella oxytoca |  |  |  |  | MIC90 | 0.5 µg/mL (≈ 1.07 µM) |
| O=C(CCCCCCC(=O)Nc1ccc([C@H]2O[C@@H](CSc3nc(-c4ccccc4)c(-c4ccccc4)o3)C[C@@H](c3ccc(CO)cc3)O2)cc1)NO | human coronavirus OC43 | virus-induced cell killing | MRC-5 | screen |  | maximum inhibition | 4.17% |
| C#CCN(C)[C@H](C)Cc1ccccc1 |  | HPLC-ECD | MPTP mouse model, striatum | 10 mg/kg |  | striatal DOPAC content | 0.265 ng/mg tissue and 0.257 ng/mg tissue and 0.214 ng/mg tissue and 0.263 ng/mg tissue and 0.372 ng/mg tissue and 0.256 ng/mg tissue and 0.198 ng/mg tissue |
| N.N.[Cl][Pt][Cl] | Cal27CisR | flow cytometry sub-G1 |  | 16.5 µM, 24 h |  | apoptotic cells | < 5% |
| CCCCC1(CCCC)CN(c2ccccc2)c2cc(SC)c(OCC(=O)N[C@@H](C(=O)NCC(=O)O)c3ccccc3)cc2S(=O)(=O)C1 |  | measured: LDL cholesterol | human, serum | 15 mg once daily, day 2 |  | serum LDL-C | 99.2 mg/dL |
| CN1CCN(S(=O)(=O)c2cc([N+](=O)[O-])ccc2N(CCOS(C)(=O)=O)CCOS(C)(=O)=O)CC1 |  |  | NSG mice, sample CF PDX | intraperitoneal, 25 mg/kg weekly x3 |  | event-free survival | 166 days |
| NC(=O)NO | human coronavirus OC43 | virus-induced cell killing | MRC-5 | screen |  | maximum inhibition | 31.7% |
| O=C(Nc1cccnn1)N1CCN([C@@H]2CCOc3cc(C(F)(F)F)ccc32)CC1 | kainate | Cerep BioPrint |  | 20 µM |  | inhibition | 10% |
| CC(=O)Oc1ccccc1C(=O)O | human coronavirus OC43 | virus-induced cell killing | MRC-5 | screen |  | maximum inhibition | 22.6% |
| Cc1ccc(C(C)Nc2nc(N3CCNCC3)nc3ccccc23)cc1 (stereo not drawn) | Vero-E6 | CellTiter-Glo ATP |  | concentration not given, 72 h, second round 5-point | reference: DMSO 0%, hyamine -100%, more negative, more toxic | cytotoxicity efficacy | 0% |
| CCCCNCCc1c[nH]c2cccc(O)c12.O=C(O)/C=C/C(=O)O |  |  | C57BL/6J mice | subcutaneous, 3 mg/kg | reference: pre-session baseline | body temperature change | -0.2 ± 0.1 °C |
| CC(C)C[C@@H]1NC(=O)[C@H](CC(C)C)NC(=O)[C@H](Cc2c[nH]c3ccccc23)NC(=O)[C@H](CO)NC(=O)[C@H](Cc2c[nH]c3ccccc23)NC(=O)[C@@H]2CCCN2C(=O)[C@H](CC(C)C)NC(=O)[C@H](Cc2c[nH]cn2)NC(=O)[C@@H]2CCCN2C(=O)[C@H](CC(N)=O)NC(=O)[C@H](C)NC(=O)[C@H](Cc2ccc(O)cc2)NC(=O)[C@H](CS)NC(=O)[C@H](CCCCNC(=O)CN2CCN(CC(=O)O)CCN(CC(=O)O)CCN(CC(=O)O)CC2)NC1=O [lutetium-177 labelled] |  | radio-HPLC | mouse serum | 24 h, 37 °C |  | radiochemical purity | > 97% |
| COc1c(CCC[P+](c2ccccc2)(c2ccccc2)c2ccccc2)cc2c(c1OC)OCO2.[I-] | NCI/ADR-RES | SRB |  |  |  | Log10LC50 | > -4 log M |
| CC(C)(C)NCCc1c[nH]c2cccc(O)c12.CC(C)(C)NCCc1c[nH]c2cccc(O)c12.O=C(O)/C=C/C(=O)O |  |  | C57BL/6J mice | subcutaneous, 10 mg/kg | reference: pre-session baseline | body temperature change | 0 ± 0.1 °C |
| OC(Cn1cncn1)(Cn1cncn1)c1ccc(F)cc1F | Saccharomyces cerevisiae | cell growth | Pdr5 deleted, empty vector | 2^-3.322 µg/mL |  | OD600 | 1.02 and 1.01 |
| CS(=O)(=O)Nc1ncn(-c2cc(F)c(COc3ccc(OS(=O)(=O)F)cc3)c(F)c2)n1 | Mycobacterium tuberculosis | intracellular growth | THP-1-derived macrophages, H37Rv |  |  | EC90 | 110 nM |
| OC[C@H]1NC[C@H](O)[C@@H](O)[C@@H]1O | human coronavirus OC43 | virus-induced cell killing | MRC-5 | screen |  | maximum inhibition | 11.7% |
| CC[C@H](C)[C@@H]1NC(=O)[C@@H]2CCCN2C(=O)[C@H](CC(C)C)NC(=O)[C@H](CC(C)C)NC(=O)CNC(=O)[C@@H](NC(=O)[C@@H](NC(=O)[C@H](CC(=O)O)NC(=O)CNC(=O)[C@@H](NC(=O)[C@H](C)NC(=O)CNC(=O)[C@H](CCCCN)NC(=O)[C@H](CC(C)C)NC(=O)[C@H](CC(C)C)NC(=O)[C@H](CCCCN)NC(=O)CNC(=O)[C@@H](NC(=O)[C@@H](N)CC(C)C)C(C)C)C(C)C)C(C)C)CSSC[C@@H](C(=O)O)NC1=O |  | RNA-seq, measured: Notch2 | mouse, traumatic brain injury model, frontal cortex and hippocampus | dose not given | reference: TBI alone | log2 fold change | -1 |
| O=C(Cc1cccc(OC(F)(F)F)c1)Nc1ccc(CCCCc2nnc(NC(=O)Cc3ccccn3)s2)nn1 | human coronavirus OC43 | virus-induced cell killing | MRC-5 | maximum over 10 doses |  | maximum inhibition | 1.12% |
| CC1(C)S[C@@H]2[C@H](NC(=O)[C@H](N)c3ccccc3)C(=O)N2[C@H]1C(=O)O | Salmonella enterica |  |  | 20 h, pH 7.2 |  | MIC | 2 µg/mL (≈ 5.72 µM) |
| COc1cc2c(cc1OCC1CC1)NC(=O)C21CCN(c2cc(NC3CC3)ncn2)CC1 | Vero-E6 | CellTiter-Glo ATP |  | concentration not given, 72 h, retest 8-point duplicates | reference: DMSO 0%, hyamine -100%, more negative, more toxic | cytotoxicity efficacy | 0% |
| Nc1ncnc2c1ncn2[C@@H]1O[C@@H]2COP(=O)(O)O[C@H]3[C@@H](O)[C@H](n4cnc5c(=O)[nH]cnc54)O[C@@H]3COP(=O)(O)O[C@H]2[C@H]1O | HFF-1 | RNA sequencing, measured: ECM proteoglycans |  | downregulated pathway | reference: Zika virus alone | pathway fold enrichment | 9.37 |
| Cc1cc(C)nc(NC(=S)N2CCN(Cc3ccc(C(F)(F)F)cc3)CC2)c1 | human coronavirus OC43 | virus-induced cell killing | MRC-5 | screen |  | maximum inhibition | 14% |
| C=CCNCCc1c[nH]c2cccc(O)c12.C=CCNCCc1c[nH]c2cccc(O)c12.O=C(O)/C=C/C(=O)O |  |  | C57BL/6J mice | subcutaneous, 10 mg/kg | reference: pre-session baseline | body temperature change | -1.1 ± 0.2 °C |
| C[C@]12CCC(=O)C=C1CC[C@@H]1[C@@H]2[C@@H](O)C[C@@]2(C)[C@H]1CC[C@]2(O)C(=O)CO | human coronavirus OC43 | virus-induced cell killing | MRC-5 | screen |  | maximum inhibition | 6.8% |
| CCCNCCc1c[nH]c2cccc(O)c12.CCCNCCc1c[nH]c2cccc(O)c12.O=C(O)/C=C/C(=O)O |  |  | C57BL/6J mice | subcutaneous, 10 mg/kg | reference: pre-session baseline | body temperature change | -0.9 ± 0.3 °C |
| Cc1cc(/C=C/c2ccc3cc(N(C)C)ccc3[n+]2C)c(C)n1-c1ccccc1 | human coronavirus OC43 | virus-induced cell killing | MRC-5 | screen |  | maximum inhibition | 42.5% |
| COc1cc(CCC[P+](c2ccccc2)(c2ccccc2)c2ccccc2)c(OC)c2c1OCO2.[I-] | SW-620 | SRB |  |  |  | LC50 | > -4 log M |

Some of these lines once more:
| SMILES | target or system | test | test system | setting | scale | quantity | result |
| --- | --- | --- | --- | --- | --- | --- | --- |
| NC(=O)NO | human coronavirus OC43 | virus-induced cell killing | MRC-5 | screen |  | maximum inhibition | 31.7% |
| O=C(Nc1cccnn1)N1CCN([C@@H]2CCOc3cc(C(F)(F)F)ccc32)CC1 | kainate | Cerep BioPrint |  | 20 µM |  | inhibition | 10% |
| CC(=O)Oc1ccccc1C(=O)O | human coronavirus OC43 | virus-induced cell killing | MRC-5 | screen |  | maximum inhibition | 22.6% |
| Cc1ccc(C(C)Nc2nc(N3CCNCC3)nc3ccccc23)cc1 (stereo not drawn) | Vero-E6 | CellTiter-Glo ATP |  | concentration not given, 72 h, second round 5-point | reference: DMSO 0%, hyamine -100%, more negative, more toxic | cytotoxicity efficacy | 0% |
